Results collected from several papers.
Numbered parts are unrelated; each lists some results of a single study. Several values in a cell are separate wells, animals, samples, runs or records.
Chain of UniProt Q9H2X6 (whole entry, looked up): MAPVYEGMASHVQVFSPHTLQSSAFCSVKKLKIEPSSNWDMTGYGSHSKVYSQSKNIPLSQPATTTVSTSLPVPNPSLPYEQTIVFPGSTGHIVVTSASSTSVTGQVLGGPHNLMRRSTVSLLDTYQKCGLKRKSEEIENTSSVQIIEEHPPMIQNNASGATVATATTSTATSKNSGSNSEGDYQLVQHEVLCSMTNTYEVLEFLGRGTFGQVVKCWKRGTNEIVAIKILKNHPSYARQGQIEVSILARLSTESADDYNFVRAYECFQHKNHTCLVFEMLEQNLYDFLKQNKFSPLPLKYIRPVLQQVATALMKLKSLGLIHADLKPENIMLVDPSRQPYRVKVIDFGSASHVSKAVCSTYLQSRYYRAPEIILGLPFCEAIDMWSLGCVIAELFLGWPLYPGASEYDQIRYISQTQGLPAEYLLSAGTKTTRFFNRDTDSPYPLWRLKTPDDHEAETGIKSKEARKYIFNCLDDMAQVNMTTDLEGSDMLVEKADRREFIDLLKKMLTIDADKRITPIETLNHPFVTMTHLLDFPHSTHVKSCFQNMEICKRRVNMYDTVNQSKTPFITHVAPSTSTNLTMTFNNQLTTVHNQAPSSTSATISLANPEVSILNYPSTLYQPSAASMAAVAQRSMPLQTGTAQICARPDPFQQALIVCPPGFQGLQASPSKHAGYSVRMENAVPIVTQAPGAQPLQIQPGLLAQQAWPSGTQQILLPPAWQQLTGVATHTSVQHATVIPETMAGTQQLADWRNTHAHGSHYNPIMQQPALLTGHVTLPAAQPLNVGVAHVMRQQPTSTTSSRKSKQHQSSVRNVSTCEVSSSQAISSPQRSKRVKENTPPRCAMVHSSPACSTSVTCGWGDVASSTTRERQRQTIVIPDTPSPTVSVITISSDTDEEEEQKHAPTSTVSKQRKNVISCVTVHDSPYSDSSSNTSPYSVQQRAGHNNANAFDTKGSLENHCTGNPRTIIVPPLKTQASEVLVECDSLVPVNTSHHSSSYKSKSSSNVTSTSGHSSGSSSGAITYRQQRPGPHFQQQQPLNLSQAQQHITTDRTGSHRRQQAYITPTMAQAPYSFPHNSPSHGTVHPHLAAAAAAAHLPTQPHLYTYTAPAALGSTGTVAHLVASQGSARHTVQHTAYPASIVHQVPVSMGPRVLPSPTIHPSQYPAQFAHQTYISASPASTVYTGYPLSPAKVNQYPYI
Chain of UniProt Q16644 (whole entry, looked up): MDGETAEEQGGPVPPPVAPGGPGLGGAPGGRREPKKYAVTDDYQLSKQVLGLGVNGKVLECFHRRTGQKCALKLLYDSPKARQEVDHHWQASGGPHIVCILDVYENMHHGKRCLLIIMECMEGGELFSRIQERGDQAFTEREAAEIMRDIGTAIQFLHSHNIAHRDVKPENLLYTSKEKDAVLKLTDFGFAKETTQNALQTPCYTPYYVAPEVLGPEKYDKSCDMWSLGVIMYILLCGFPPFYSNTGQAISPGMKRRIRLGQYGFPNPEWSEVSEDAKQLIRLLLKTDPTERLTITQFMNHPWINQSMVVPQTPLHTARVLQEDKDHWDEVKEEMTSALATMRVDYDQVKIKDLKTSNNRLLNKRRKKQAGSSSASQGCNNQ
Chain of UniProt P54764 (whole entry, looked up): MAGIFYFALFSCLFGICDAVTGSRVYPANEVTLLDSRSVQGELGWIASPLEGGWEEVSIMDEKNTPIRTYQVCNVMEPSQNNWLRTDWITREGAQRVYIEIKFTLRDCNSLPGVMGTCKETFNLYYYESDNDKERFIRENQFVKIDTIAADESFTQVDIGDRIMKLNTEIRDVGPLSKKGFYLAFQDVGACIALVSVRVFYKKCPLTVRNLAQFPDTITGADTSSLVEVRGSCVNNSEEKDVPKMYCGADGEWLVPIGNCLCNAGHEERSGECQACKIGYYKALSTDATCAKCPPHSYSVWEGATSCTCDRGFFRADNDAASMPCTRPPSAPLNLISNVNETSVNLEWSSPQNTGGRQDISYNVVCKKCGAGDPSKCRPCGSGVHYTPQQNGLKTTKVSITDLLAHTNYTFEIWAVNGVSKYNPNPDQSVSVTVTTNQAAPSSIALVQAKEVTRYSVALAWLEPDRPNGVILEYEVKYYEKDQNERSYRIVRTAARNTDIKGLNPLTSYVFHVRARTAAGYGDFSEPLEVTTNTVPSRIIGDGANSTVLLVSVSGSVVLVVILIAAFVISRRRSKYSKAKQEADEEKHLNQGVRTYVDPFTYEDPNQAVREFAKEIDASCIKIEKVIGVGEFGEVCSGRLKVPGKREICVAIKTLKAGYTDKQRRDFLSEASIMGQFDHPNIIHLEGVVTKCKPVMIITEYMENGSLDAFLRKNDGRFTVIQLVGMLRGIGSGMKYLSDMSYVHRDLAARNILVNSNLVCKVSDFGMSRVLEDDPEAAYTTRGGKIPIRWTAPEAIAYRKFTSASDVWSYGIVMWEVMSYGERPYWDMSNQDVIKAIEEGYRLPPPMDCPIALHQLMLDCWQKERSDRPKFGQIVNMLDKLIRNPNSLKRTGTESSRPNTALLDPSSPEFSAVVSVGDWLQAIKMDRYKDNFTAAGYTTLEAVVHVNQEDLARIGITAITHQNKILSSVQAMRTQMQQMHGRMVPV
Chain of UniProt Q8NE63 (whole entry, looked up): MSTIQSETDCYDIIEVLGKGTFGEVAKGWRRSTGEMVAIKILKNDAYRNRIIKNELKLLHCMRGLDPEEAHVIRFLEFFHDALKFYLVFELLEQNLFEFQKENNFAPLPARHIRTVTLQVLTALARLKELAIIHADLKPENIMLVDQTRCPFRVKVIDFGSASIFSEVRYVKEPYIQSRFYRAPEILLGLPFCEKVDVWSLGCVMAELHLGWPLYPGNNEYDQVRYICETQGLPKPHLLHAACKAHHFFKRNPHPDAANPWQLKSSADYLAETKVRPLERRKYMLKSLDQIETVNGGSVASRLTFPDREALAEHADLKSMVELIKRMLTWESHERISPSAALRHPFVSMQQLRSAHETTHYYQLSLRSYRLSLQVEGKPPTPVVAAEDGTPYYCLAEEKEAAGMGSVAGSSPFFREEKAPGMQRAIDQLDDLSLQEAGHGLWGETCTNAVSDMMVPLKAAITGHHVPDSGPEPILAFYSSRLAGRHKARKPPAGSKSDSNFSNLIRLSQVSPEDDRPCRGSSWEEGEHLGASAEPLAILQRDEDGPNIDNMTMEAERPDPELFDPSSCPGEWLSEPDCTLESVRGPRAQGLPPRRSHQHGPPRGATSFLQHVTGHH
Chain of UniProt P51451 (whole entry, looked up): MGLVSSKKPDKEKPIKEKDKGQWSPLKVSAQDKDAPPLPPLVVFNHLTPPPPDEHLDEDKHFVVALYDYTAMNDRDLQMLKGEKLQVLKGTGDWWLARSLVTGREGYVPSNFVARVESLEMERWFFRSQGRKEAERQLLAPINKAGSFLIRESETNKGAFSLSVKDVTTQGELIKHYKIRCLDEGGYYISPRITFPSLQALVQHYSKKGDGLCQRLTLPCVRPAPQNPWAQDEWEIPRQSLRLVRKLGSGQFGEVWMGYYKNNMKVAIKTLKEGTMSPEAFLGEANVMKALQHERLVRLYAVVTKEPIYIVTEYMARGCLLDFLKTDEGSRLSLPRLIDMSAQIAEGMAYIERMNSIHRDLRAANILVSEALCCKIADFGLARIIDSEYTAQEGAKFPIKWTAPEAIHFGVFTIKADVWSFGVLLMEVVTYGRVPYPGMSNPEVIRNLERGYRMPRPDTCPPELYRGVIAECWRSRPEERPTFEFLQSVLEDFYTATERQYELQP

Study 1
Structure (SMILES): CC(C)S(=O)(=O)c1ccc2nccc(Nc3ccc4sc(C5CCCC5)nc4c3)c2c1.Cl
cell line | test | setting | viability
L929 RIPK3 knockout |  | 50 µM | 58.9% and 62.4% and 61.1% and 64% and 62.7%
L929 RIPK3 knockout |  | 3.125 µM, added: zVAD | 104% and 103% and 101% and 106%
L929 RIPK3 knockout |  | 1.563 µM, added: zVAD | 100% and 103% and 98.9% and 101%
L929 | CCK-8 | 0.781 µM, added: zVAD | 96.1% and 96.7% and 98.5%
L929 | CCK-8 | 0.781 µM | 100% and 101% and 102%
L929 RIPK3 knockout |  | 3.125 µM | 101% and 102% and 106%
L929 RIPK3 knockout |  | 12.5 µM, added: zVAD | 104% and 103% and 101%
L929 | CCK-8 | 12.5 µM, added: zVAD | 107% and 112% and 111%
L929 | CCK-8 | 12.5 µM | 105% and 112% and 103% and 108% and 111%
L929 | CCK-8 | 25 µM | 88.4% and 92.1% and 90.7% and 84.4%

Study 2 — read-out: enzyme activity; mode: inhibitor; tested at: 0.5 µM; reference: control
Compound: COc1ccc2c(c[n+](C)c3c4cc5c(cc4ccc23)OCO5)c1OC
target | remaining activity [%]
WNK3 (Homo sapiens, UniProt Q9BYP7) | 101
BLK (Homo sapiens, UniProt P51451) | 98.7
HIPK4 (Homo sapiens, UniProt Q8NE63) | 95.9
MAPKAPK3 (Homo sapiens, UniProt Q16644) | 83
EPHA4 (Homo sapiens, UniProt P54764) | 103
HIPK2 (Homo sapiens, UniProt Q9H2X6) | 92.6

Study 3 — read-out: ligand displacement; tested at: 10 µM
Target: Muscarinic acetylcholine receptor M1 (CHRM1, Homo sapiens, UniProt P11229)
Chain of UniProt P11229 (whole entry, looked up): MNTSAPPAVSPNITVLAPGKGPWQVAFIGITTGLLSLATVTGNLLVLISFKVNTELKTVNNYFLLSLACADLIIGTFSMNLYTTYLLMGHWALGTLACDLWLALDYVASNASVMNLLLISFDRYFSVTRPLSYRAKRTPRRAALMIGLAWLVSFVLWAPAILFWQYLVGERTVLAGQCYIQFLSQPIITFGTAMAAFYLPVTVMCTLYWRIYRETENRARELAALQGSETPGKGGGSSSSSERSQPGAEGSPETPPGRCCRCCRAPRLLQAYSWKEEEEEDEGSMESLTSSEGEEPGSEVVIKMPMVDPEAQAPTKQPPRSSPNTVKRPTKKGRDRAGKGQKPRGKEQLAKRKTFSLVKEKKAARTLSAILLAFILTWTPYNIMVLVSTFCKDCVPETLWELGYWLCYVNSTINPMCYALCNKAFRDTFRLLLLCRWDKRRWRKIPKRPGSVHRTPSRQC
SMILES | inhibition
CN(C)CC#Cc1ccc(OCCCc2sc(N3CCc4cccc(C(=O)Nc5nc6ccccc6s5)c4C3)nc2C(=O)O)c(F)c1 | -11.6%
Cn1cc(Cl)c2c(Oc3c(F)cc(Nc4cc(Cl)nc(N)n4)cc3F)ccnc21 | -5.04%
CN1CCN(c2ccnc(NCCc3ccccc3)n2)CC1 | 18.6%
COc1cc(C(=O)O)ncc1C#Cc1ccccc1NS(=O)(=O)c1cccc2c(N(C)C)ccnc12 | 25%
CNC(=O)Nc1ccc2c(c1)CC[C@]21OC(=O)N(CC(=O)N(Cc2ccc(F)cc2)[C@@H](C)C(F)(F)F)C1=O | 2.64%
CNC(=N)NCCC[C@H](NC(=O)[C@H](CC(C)C)NC(=O)NNC(=O)[C@H](Cc1ccccc1)NC(=O)[C@H](CO)NC(=O)[C@H](CC(N)=O)NC(=O)[C@@H](Cc1ccncc1)NC(=O)[C@H](N)Cc1ccc(O)cc1)C(=O)N[C@@H](Cc1ccccc1)C(N)=O | 2.17%

Single results of other studies
Compound | test system | setting | measurement | value
COc1ccc(-c2c(Nc3ccccn3)[nH]c3c(C4=CCCCC4)c(-c4ccccc4)nn3c2=O)cc1 | patients with advanced malignancies | oral, dose not given, treatment-emergent adverse events | grade 3 pancreatitis incidence | 5%

Some of these lines once more (study 3):
SMILES | inhibition
CN(C)CC#Cc1ccc(OCCCc2sc(N3CCc4cccc(C(=O)Nc5nc6ccccc6s5)c4C3)nc2C(=O)O)c(F)c1 | -11.6%
CNC(=O)Nc1ccc2c(c1)CC[C@]21OC(=O)N(CC(=O)N(Cc2ccc(F)cc2)[C@@H](C)C(F)(F)F)C1=O | 2.64%
